Measured values from different studies.
Every numbered part comes from another study and shows a few of its results, in no order. Changes are numbered by the printed parent chain.

Study 1
Target: CREBRF, bZIP domain (human)
Method: DHFR protein complementation
Matrix: yeast
Notes: single substitutions, most at no-binding floor
Reference: wild-type JUN-FOS pair
Direction: higher = stronger binding
Quantity: binding fitness
Starting sequence: JUN, bZIP domain (human); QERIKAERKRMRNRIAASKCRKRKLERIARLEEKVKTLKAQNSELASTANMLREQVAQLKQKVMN; partner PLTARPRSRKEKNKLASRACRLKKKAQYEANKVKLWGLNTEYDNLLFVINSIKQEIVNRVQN
Substitution = L31K; result = -1.48 natural log
Substitution = R53Q; result = -1.47 natural log
Substitution = A49L; result = -1.45 natural log
Substitution = L45K; result = -1.56 natural log
Substitution = E33I; result = -1.42 natural log
Substitution = A40P; result = -1.5 natural log
Substitution = A49V; result = -1.48 natural log
Substitution = E32D; result = -1.28 natural log

Study 2
Target: Ras GTPase-activating protein-binding protein 1, full length (G3BP1, Homo sapiens, UniProt Q13283)
Chain of UniProt Q13283 (whole entry, looked up): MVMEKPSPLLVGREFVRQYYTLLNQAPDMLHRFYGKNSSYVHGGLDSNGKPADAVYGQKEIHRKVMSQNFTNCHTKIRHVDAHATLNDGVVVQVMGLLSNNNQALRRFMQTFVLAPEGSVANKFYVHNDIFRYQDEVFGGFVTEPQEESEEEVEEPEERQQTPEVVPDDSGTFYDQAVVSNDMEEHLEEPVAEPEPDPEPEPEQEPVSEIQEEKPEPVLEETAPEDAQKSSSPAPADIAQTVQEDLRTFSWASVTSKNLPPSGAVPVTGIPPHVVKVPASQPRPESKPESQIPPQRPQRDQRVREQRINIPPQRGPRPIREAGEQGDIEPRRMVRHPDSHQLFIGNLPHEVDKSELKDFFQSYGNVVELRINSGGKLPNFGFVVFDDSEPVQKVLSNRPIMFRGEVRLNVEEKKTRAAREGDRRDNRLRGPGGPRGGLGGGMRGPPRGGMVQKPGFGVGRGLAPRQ
Method: RNA Bind-n-Seq
Form: RNA
Matrix: in vitro
Tested at: 200 nM
Notes: whole 134-nt RNA, ends assumed
With: 150 mM LiCl
Reference: input library
Direction: higher = stronger binding
Quantity: log2 enrichment
All molecules: 7-deaza-guanosine replaces G
Sequence = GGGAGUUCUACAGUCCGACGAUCGCAGGAAGUAAAACCAAAUGGAAAUGCUUCGGAUAGUGGCAGGGGUGGGGGUUGCUAAGGAAAGGGUGGGAUGGGAGUGGGUAAAGAGUUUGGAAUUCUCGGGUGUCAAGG; result = -0.211
Sequence = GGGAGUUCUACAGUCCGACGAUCUGUGCUACACAUCGUAUGUACCGAAUCGGGGAAAAAAAGGGGUUUUUGGGGAAAAAAAGGGGAAAGUAUUAUGUUACGCCGUUCGGAUCUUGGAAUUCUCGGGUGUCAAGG; result = 0.00838
Sequence = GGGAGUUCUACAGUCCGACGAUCAAGUCCUGUGCUACACAUCGUAUGUACCGAAUCAAAUUUUUAAACCCAAAUUUAAAAAAGUAUUAUGUUACGCCGUUCGGAUCUGCACUUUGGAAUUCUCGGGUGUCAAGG; result = -2.31
Sequence = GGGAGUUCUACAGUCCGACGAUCAAGUCCUGUGCUACACAUCGUAUGUACCGAAUCGGGGAGGGGUUUGGGGAAAGGGGAAAGUAUUAUGUUACGCCGUUCGGAUCUGCACUUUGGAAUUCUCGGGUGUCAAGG; result = -0.0721
Sequence = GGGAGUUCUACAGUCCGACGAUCUCCUCAAGUCCUGUGCUACACAUCGUAUGUACCGAAUCGGGGUGGUGGGUGGAAAGUAUUAUGUUACGCCGUUCGGAUCUGCACUUCCAGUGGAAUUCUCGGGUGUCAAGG; result = 0.0471
Sequence = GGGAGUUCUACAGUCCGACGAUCUAACUUGAGAGGAGGAUCUGAUGGAUAUGGCAGUGGACGUGGAUUUGGGGAUGGCUAUAAUGGGUAUGGAGGAGGACCUGGAGGUGGCAAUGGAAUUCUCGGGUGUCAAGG; result = -0.191
Sequence = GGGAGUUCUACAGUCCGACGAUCUUUACAAAUAUGCCCAAGACUUCUUGGUGGCUAUUGCAGAGCCAGUGUGCCGACCAACCCAUGUGCAUGAGUACAAACUAACUGCCUACUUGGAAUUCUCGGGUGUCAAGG; result = 0.109
Sequence = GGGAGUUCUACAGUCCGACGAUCCCUGUGCUACACAUCGUAUGUACCGAAUCGGGAAAAAAAGGGAAAAAGGGAAAAAAAGGGAAAGUAUUAUGUUACGCCGUUCGGAUCUGCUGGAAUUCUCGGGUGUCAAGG; result = 0.0329

Study 3
Target: Sal-like protein 4, full length isoform A (SALL4, Homo sapiens, UniProt Q9UJQ4, residues 1-1053)
Chain of UniProt Q9UJQ4 (whole entry, looked up): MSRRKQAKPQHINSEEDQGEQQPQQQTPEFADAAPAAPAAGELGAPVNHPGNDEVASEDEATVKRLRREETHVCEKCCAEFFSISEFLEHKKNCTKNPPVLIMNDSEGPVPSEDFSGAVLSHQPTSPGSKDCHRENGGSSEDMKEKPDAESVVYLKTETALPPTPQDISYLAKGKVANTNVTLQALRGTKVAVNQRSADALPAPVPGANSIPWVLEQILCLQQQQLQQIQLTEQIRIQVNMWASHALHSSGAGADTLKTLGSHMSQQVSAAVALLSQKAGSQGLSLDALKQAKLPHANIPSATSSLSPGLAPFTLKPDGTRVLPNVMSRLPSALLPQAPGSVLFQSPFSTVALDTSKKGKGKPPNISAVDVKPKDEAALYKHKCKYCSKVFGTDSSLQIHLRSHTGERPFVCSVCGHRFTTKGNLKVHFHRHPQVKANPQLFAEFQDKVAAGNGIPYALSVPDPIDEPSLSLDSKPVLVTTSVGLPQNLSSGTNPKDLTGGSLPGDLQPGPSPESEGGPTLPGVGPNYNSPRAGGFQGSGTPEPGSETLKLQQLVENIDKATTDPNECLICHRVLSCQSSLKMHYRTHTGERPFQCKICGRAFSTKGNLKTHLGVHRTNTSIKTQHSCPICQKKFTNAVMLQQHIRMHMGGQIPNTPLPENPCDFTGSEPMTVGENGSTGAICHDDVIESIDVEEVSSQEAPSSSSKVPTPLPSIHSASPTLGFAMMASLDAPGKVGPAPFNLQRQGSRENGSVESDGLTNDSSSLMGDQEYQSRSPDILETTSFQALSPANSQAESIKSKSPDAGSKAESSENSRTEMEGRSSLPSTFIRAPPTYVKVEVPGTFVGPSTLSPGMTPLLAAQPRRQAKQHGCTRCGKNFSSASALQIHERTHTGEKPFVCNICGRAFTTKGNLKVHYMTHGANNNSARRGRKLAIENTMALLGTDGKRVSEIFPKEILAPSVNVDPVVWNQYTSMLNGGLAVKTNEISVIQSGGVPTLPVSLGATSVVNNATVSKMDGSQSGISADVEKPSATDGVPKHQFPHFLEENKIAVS
Method: universal PBM
Form: double-stranded DNA, one strand shown
Matrix: in vitro
Tested at: 600 nM
Notes: 8-mer, flanks averaged, mean of replicates
Direction: higher = stronger binding
Quantity: E-score
Sequence = CCGACCGA; result = -0.333
Sequence = GGCTCGAC; result = -0.257
Sequence = ACGAGCCA; result = -0.151
Sequence = TGGACGAA; result = 0.146
Sequence = AGTTACCC; result = -0.0719
Sequence = CCCATATC; result = 0.118
Sequence = ATGGGGTA; result = -0.00496
Sequence = GGGCGTCA; result = -0.23

Mixed results
Starting sequence: PafA, mature enzyme, eGFP fusion (Elizabethkingia meningoseptica, UniProt Q9KJX5); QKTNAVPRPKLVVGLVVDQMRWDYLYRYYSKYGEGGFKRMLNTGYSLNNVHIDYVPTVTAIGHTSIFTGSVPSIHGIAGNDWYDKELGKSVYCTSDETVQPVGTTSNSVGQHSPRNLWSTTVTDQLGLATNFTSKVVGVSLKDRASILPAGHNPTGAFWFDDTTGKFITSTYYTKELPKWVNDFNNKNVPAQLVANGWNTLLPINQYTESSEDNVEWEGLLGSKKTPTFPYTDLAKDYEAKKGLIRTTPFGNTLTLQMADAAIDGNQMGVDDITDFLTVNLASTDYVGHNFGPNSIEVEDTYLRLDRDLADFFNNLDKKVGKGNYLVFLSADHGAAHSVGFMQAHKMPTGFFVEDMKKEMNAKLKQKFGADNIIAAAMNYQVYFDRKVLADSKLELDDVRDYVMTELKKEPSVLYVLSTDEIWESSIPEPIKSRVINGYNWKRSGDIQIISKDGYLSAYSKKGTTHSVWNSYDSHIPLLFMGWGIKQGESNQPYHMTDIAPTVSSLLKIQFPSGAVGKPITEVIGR
Substitution = E395G; target = vanadate, free oxyanion; assay = microfluidic competitive inhibition; test system = in vitro, cell-free expressed; conditions = not given, derived from inhibition constants, unchanged parent 676 nM; scale = lower = stronger binding; quantity = oxyanion analog dissociation constant; result = 695 nM

A few entries again (study 3):
Sequence = CCGACCGA; result = -0.333
Sequence = GGCTCGAC; result = -0.257
